Measured values gathered from unrelated publications.
Compare with care: the assays were run in different laboratories.
T1: PSMG1/PSMG2 heterodimer (Homo sapiens); chain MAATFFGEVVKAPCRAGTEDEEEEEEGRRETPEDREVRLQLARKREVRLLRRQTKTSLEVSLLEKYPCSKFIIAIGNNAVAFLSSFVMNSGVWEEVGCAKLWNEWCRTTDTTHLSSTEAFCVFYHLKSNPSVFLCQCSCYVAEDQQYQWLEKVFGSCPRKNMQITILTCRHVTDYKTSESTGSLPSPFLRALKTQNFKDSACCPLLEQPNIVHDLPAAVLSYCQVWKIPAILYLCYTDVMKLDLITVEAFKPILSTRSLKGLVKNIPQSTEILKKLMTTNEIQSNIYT; chain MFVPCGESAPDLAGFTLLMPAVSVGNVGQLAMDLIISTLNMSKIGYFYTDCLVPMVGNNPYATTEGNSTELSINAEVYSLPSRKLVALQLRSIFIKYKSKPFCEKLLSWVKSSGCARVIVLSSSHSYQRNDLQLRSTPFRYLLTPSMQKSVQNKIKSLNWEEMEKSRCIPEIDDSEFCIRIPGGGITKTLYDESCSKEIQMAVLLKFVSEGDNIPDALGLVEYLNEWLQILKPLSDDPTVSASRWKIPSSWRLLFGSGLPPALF
B1: lpxC 1-305 (Escherichia coli, UniProt P0A725); chain MIKQRTLKRIVQATGVGLHTGKKVTLTLRPAPANTGVIYRRTDLNPPVDFPADAKSVRDTMLCTCLVNEHDVRISTVEHLNAALAGLGIDNIVIEVNAPEIPIMDGSAAPFVYLLLDAGIDELNCAKKFVRIKETVRVEDGDKWAEFKPYNGFSLDFTIDFNHPAIDSSNQRYAMNFSADAFMRQISRARTFGFMRDIEYLQSRGLCLGGSFDCAIVVDDYRVLNEDGLRFEDEFVRHKMLDAIGDLFMCGHNIIGAFTAYKSGHALNNKLLQAVLAKQEAWEYVTFQDDAELPLAFKAPSAVLA
B2: TIM9 1-87 (Saccharomyces cerevisiae, UniProt O74700); chain MDALNSKEQQEFQKVVEQKQMKDFMRLYSNLVERCFTDCVNDFTTSKLTNKEQTCIMKCSEKFLKHSERVGQRFQEQNAALGQGLGR
B3: CLEC1A 74-280 (Homo sapiens, UniProt Q8NC01); sequence looked up; chain QYYQLSNTGQDTISQMEERLGNTSQELQSLQVQNIKLAGSLQHVAEKLCRELYNKAGAHRCSPCTEQWKWHGDNCYQFYKDSKSWEDCKYFCLSENSTMLKINKQEDLEFAASQSYSEFFYSYWTGLLRPDSGKAWLWMDGTPFTSELFHIIIDVTSPRSRDCVAILNGMIFSKDCKELKRCVCERRAGMVKPESLHVPPETLGEGD
B4: MDM4 23-150 (Homo sapiens, UniProt O15151); sequence looked up; chain QINQVRPKLPLLKILHAAGAQGEMFTVKEVMHYLGQYIMVKQLYDQQEQHMVYCGGDLLGELLGRQSFSVKDPSPLYDMLRKNLVTLATATTDAAQTLALAQDHSMDIPSQDQLKQSAEESSTSRKRT
B5: RNASE1 mature P114G/H12A (Bos taurus, UniProt P61823); sequence looked up; chain KETAAAKFERQAMDSSTSAASSSNYCNQMMKSRNLTKDRCKPVNTFVHESLADVQAVCSQKNVACKNGQTNCYQSYSTMSITDCRETGSSKYPNCAYKTTQANKHIIVACEGNGYVPVHFDASV
B6: TARBP2 (Homo sapiens, UniProt Q15633); sequence looked up; chain MSEEEQGSGTTTGCGLPSIEQMLAANPGKTPISLLQEYGTRIGKTPVYDLLKAEGQAHQPNFTFRVTVGDTSCTGQGPSKKAAKHKAAEVALKHLKGGSMLEPALEDSSSFSPLDSSLPEDIPVFTAAAAATPVPSVVLTRSPPMELQPPVSPQQSECNPVGALQELVVQKGWRLPEYTVTQESGPAHRKEFTMTCRVERFIEIGSGTSKKLAKRNAAAKMLLRVHTVPLDARDGNEVEPDDDHFSIGVGSRLDGLRNRGPGCTWDSLRNSVGEKILSLRSCSLGSLGALGPACCRVLSELSEEQAFHVSYLDIEELSLSGLCQCLVELSTQPATVCHGSATTREAARGEAARRALQYLKIMAGSK
B7: PSMA3 (Homo sapiens, UniProt P25788); chain MSSIGTGYDLSASTFSPDGRVFQVEYAMKAVENSSTAIGIRCKDGVVFGVEKLVLSKLYEEGSNKRLFNVDRHVGMAVAGLLADARSLADIAREEASNFRSNFGYNIPLKHLADRVAMYVHAYTLYSAVRPFGCSFMLGSYSVNDGAQLYMIDPSGVSYGYWGCAIGKARQAAKTEIEKLQMKEMTCRDIVKEVAKIIYIVHDEVKDKAFELELSWVGELTNGRHEIVPKDIREEAEKYAKESLKEEDESDDDNM
B8: PEX6 1-1030 (Saccharomyces cerevisiae, UniProt P33760); chain MKASLTFSLSGIYAPCSISRDIYLEYGDKKAECLYGTIRLPQYGPGCTPGKIVHCVLDDSLPFCSIVVPSKLFGFMPTQPTMDFCYFEPILDNVVPVLDSVTFLINEQLYSKLMDLPQEMQQIQFLHYKYNINSMETVVHSRDILTSGLCQILNCSPFPQGLVDFTETQLILVNDTEQKLSALKYANEDEEYALPKIGTNSALSIDLESLPCTISRDLLRPAPHINDDNSIYAFTDAETLLRLDVTSGSFITVSNMGCVRLVKLFVLLLPNGFKKRTIYAPPKIIASFPDCSVVTISKSNIGHTDIPIANQVFISRVGGWLQSQKCFQNIILTTLKKFFSESKRILCQNDLIPIAFDSSMADLNIAEENDESDDEDELGQYYKNDSLVWFFVTSAELDCFSKDNSHFIIDPNRTKLITTNITNRRPLPLSRSNLQRYYGFAETFYYDLHIFPYVRQLVNILETSFNCSQRGITLNASVLLHSTTNNVGKATMVRFASKYLGIHLLEIDCLSLTSNSRQLDSTSKIIGYIRAKCENVLPYASPAVIFLAHLDSILLDVNANQDPEAIKLQKSINFEMSKLLDDFTFKFPGTTFVGSVNNIDNVPSSFRSHMRFEILVPVPSEAQRLRIFQWYLSSHELNRDVQQKVPVSYMDNISFSSLSSYSAGLTPLDIKSIVETARMTATARFYQESKKCGWLPQSILITQEDLSKATSKARNEFSVSIGAPQIPNVTWDDIGGIDFVKGEILDTIDMPLKHPELFTSGMKKRSGILFYGPPGTGKTLMAKAIATNFSLNFFSVKGPELLNMYIGESEANVRRVFQKAREAKPCVIFFDEIDSVAPKRGNQGDSGGVMDRIVSQLLAELDGMSTDADGVFVIGATNRPDLLDEALLRPGRFDKLLYLGIPDTDTKQLNILEALTRKFVLDNDVKLIELAKLCPFNYTGADFYALCSDAMLNAMSRIARMVEKKVSQHNELTGENISTRRWFDKIATKEDTKVVVKMEDFLKAQEQLTPSVSRAELNHYEAVRANFEGA
B9: HCK 78-138 (Homo sapiens, UniProt P08631); chain SEDIIVVALYDYEAIHHEDLSFQKGDQMVVLEESGEWWKARSLATRKEGYIPSNYVARVDS
B10: CCDC22 280-446 (Homo sapiens, UniProt O60826); chain GAGAKTGAPKGSRFTHSEKFTFHLEPQAQATQVSDVPATSRRPEQVTWAAQEQELESLREQLEGVNRSIEEVEADMKTLGVSFVQAESECRHSKLSTAEREQALRLKSRAVELLPDGTANLAKLQLVVENSAQRVIHLAGQWEKHRVPLLAEYRHLRKLQDCRELES
B11: rasC Q62L (Dictyostelium discoideum, UniProt P32253); sequence looked up; chain MSKLLKLVIVGDGGVGKSALTIQLTQNQFIAEYDPTIENSYRKQVNIDEEVYMLDILDTAGLEEYSAMRDQYIRSGRGFLIVYSIISRASFEAVTTFREQILRVKDLSTYPIVIIGNKADLPDKDRKVPPMEGKELAKSFGAPFLETSAKSRVNVEEAFFTLVREIKRWNQNPQNEEMLPPKKRGCIIL
B12: nlpI (Escherichia coli, UniProt P0AFB1); sequence looked up; chain CSNTSWRKSEVLAVPLQPTLQQEVILARMEQILASRALTDDERAQLLYERGVLYDSLGLRALARNDFSQALAIRPDMPEVFNYLGIYLTQAGNFDAAYEAFDSVLELDPTYNYAHLNRGIALYYGGRDKLAQDDLLAFYQDDPNDPFRSLWLYLAEQKLDEKQAKEVLKQHFEKSDKEQWGWNIVEFYLGNISEQTLMERLKADATDNTSLAEHLSETNFYLGKYYLSLGDLDSATALFKLAVANNVHNFVEHRYALLELSLLGQDQDDLAESDQQ
B13: TNPO1; chain VWDRQTKMEYEWKPDEQGLQQILQLLKESQSPDTTIQRTVQQKLEQLNQYPDFNNYLIFVLTKLKSEDEPTRSLSGLILKNNVKAHFQNFPNGVTDFIKSECLNNIGDSSPLIRATVGILITTIASKGELQNWPDLLPKLCSLLDSEDYNTCEGAFGALQKICEDSAEILDSDVLDRPLNIMIPKFLQFFKHSSPKIRSHAVACVNQFIISRTQALMLHIDSFIENLFALAGDEEPEVRKNVCRALVMLLEVRMDRLLPHMHNIVEYMLQRTQDQDENVALEACEFWLTLAEQPICKDVLVRHLPKLIPVLVNGMKYSDIDIILLKGDVEEDETIPDSEQDIRPRFHRSRTVAQQHDEDGIEEEDDDDDEIDDDDTISDWNLRKCSAAALDVLANVYRDELLPHILPLLKELLFHHEWVVKESGILVLGAIAEGCMQGMIPYLPELIPHLIQCLSDKKALVRSITCWTLSRYAHWVVSQPPDTYLKPLMTELLKRILDSNKRVQEAACSAFATLEEEACTELVPYLAYILDTLVFAFSKYQHKNLLILYDAIGTLADSVGHHLNKPEYIQMLMPPLIQKWNMLKDEDKDLFPLLECLSSVATALQSGFLPYCEPVYQRCVNLVQKTLAQAMLNNAQPDQYEAPDKDFMIVALDLLSGLAEGLGGNIEQLVARSNILTLMYQCMQDKMPEVRQSSFALLGDLTKACFQHVKPCIADFMPILGTNLNPEFISVCNNATWAIGEISIQMGIEMQPYIPMVLHQLVEIINRPNTPKTLLENTAITIGRLGYVCPQEVAPMLQQFIRPWCTSLRNIRDNEEKDSAFRGICTMISVNPSGVIQDFIFFCDAVASWINPKDDLRDMFCKILHGFKNQVGDENWRRFSDQFPLPLKERLAAFYGV
B14: KAT7 474-611 (Homo sapiens, UniProt O95251); sequence looked up; chain CILTMPQYMRQGYGKMLIDFSYLLSKVEEKVGSPERPLSDLGLISYRSYWKEVLLRYLHNFQGKEISIKEISQETAVNPVDIVSTLQALQMLKYWKGKHLVLKRQDLIDEWIAKEAKRSNSNKTMDPSCLKWTPPKGT
UniProt Q9NVU0, sequence (whole entry, looked up): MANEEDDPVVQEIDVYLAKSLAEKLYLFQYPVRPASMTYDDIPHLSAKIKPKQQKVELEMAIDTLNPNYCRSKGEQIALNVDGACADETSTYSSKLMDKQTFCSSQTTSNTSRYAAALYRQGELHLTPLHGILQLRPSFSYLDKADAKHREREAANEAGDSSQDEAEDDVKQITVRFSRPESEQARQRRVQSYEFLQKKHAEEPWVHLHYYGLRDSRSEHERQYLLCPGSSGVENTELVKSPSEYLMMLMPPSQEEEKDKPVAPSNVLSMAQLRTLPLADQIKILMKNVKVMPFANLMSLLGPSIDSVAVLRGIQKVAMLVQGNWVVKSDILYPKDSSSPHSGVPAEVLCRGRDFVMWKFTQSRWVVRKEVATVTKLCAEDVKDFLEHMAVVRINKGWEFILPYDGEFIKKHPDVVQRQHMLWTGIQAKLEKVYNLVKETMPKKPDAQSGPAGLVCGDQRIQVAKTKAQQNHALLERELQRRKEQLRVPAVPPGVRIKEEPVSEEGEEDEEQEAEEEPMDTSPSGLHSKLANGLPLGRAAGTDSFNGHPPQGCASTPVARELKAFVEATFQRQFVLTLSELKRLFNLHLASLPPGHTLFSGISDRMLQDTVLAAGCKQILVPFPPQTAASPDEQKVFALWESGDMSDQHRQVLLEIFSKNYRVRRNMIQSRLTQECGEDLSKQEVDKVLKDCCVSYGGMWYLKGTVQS
UniProt Q5SXM2, sequence (whole entry, looked up): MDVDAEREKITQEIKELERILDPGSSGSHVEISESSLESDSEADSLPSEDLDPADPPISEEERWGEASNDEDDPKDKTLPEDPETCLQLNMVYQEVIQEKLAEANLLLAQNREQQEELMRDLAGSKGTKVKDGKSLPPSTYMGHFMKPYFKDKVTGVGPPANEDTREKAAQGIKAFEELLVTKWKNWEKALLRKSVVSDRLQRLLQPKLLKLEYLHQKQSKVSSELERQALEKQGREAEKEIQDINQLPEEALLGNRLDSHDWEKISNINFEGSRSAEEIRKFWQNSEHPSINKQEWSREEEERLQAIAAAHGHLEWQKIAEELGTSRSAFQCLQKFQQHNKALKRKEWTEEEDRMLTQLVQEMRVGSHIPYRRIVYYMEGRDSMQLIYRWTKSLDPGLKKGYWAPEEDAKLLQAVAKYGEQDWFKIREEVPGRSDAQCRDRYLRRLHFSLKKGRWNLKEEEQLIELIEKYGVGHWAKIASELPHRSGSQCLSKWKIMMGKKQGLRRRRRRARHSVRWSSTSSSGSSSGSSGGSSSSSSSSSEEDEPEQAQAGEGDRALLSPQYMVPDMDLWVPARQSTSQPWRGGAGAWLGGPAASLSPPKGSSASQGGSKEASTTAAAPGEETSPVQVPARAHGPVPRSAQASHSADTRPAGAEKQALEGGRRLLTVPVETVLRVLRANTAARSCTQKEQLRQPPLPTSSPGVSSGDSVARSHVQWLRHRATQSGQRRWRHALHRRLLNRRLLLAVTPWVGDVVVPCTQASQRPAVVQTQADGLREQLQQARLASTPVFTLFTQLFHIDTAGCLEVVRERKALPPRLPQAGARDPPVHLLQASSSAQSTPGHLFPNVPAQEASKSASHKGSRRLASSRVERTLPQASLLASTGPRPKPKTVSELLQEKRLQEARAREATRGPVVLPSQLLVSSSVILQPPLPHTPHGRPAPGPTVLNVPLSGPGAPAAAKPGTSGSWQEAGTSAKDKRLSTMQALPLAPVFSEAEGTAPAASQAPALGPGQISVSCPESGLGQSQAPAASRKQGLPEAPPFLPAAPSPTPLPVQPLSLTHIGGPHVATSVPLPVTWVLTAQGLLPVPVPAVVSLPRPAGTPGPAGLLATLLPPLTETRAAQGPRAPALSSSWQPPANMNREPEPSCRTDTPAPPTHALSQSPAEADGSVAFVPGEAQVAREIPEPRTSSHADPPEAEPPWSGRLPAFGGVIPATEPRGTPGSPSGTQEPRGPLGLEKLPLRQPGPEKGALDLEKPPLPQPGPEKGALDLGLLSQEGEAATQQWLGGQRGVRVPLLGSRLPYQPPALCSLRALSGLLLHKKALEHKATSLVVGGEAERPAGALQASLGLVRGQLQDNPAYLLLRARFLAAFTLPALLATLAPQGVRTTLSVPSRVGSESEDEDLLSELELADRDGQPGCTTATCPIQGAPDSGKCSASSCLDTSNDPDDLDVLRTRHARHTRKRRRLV
UniProt Q09312, sequence (whole entry, looked up): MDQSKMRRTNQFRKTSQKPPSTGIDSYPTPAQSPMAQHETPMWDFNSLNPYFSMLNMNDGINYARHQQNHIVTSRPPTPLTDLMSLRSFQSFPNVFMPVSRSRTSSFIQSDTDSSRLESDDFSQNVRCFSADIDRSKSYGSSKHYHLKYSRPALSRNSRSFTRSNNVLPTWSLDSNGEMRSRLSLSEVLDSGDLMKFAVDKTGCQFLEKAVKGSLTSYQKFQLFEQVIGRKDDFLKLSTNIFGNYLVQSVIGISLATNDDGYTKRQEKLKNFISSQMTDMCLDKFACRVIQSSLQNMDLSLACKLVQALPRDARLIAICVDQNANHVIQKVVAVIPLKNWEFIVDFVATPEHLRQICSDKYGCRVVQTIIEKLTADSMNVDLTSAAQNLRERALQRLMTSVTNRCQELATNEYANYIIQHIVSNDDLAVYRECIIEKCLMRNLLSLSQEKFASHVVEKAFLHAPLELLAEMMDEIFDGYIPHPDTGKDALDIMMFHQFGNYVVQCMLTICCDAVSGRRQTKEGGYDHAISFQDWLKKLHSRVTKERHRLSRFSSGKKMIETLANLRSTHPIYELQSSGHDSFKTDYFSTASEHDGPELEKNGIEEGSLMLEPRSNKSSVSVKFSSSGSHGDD
UniProt Q02455, sequence (whole entry, looked up): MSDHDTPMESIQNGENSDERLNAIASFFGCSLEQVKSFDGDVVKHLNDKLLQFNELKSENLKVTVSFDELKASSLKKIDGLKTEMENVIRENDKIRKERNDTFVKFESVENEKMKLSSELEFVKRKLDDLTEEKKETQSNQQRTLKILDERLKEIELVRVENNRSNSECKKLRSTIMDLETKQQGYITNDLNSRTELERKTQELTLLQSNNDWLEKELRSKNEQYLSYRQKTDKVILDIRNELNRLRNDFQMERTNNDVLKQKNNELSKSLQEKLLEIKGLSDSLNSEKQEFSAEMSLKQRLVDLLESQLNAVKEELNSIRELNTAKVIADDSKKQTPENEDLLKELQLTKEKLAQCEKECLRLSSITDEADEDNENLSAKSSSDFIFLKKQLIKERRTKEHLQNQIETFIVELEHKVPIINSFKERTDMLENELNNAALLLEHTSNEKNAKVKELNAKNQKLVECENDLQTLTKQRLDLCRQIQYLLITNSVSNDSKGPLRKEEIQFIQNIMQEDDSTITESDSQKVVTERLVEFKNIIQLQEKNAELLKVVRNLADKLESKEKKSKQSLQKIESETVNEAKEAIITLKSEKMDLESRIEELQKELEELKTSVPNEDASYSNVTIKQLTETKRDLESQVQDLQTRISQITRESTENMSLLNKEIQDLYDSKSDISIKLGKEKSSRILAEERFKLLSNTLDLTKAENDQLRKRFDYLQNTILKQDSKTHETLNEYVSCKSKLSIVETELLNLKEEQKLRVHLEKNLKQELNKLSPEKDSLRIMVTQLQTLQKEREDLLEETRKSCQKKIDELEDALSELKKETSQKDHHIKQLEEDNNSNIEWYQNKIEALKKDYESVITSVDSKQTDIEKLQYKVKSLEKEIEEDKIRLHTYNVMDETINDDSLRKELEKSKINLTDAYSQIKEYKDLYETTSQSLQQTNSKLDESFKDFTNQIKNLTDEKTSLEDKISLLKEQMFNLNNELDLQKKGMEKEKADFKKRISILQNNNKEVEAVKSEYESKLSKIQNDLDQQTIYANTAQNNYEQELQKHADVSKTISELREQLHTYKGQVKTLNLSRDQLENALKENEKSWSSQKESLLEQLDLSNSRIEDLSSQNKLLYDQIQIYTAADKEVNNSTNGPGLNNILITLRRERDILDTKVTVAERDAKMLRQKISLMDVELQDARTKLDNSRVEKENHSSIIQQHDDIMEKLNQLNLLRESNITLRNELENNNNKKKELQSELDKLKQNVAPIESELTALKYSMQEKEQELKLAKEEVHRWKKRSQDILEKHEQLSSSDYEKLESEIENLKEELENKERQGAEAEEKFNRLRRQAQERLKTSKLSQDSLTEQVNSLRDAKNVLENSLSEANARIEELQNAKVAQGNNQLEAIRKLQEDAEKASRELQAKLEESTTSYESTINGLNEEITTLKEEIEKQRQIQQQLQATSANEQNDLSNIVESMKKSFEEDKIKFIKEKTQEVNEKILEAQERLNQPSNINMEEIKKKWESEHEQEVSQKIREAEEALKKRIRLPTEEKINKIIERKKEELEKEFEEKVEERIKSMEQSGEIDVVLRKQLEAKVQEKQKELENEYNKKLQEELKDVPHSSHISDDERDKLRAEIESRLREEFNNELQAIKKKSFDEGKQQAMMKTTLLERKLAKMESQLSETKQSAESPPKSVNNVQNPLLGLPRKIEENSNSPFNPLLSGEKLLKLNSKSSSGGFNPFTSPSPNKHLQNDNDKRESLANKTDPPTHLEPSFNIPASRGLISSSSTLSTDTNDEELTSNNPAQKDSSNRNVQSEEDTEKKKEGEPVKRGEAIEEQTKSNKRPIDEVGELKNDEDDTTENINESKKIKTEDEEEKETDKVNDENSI
UniProt P87108, sequence (whole entry, looked up): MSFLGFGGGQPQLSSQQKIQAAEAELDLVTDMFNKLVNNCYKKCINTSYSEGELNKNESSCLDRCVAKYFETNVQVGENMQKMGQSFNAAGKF

B1 (lpxC 1-305)  binding (lapB 21-389 W377G (Escherichia coli, UniProt P0AB58); pull-down): binds
B2 (TIM9 1-87)  binding (TIM10 (Saccharomyces cerevisiae, UniProt P87108); SEC): binds
B3 (CLEC1A 74-280)  binding (SERPINC1 mature (Homo sapiens, UniProt P01008); SPR): binds
B4 (MDM4 23-150)  binding (TP53 (Homo sapiens, UniProt P04637); ELISA): binds
B5 (RNASE1 mature P114G/H12A)  binding (RNASE1 mature P114G/H119A (Bos taurus, UniProt P61823); SEC): binds
B6 (TARBP2)  binding (DICER1 (Homo sapiens, UniProt Q9UPY3); SEC): binds
B7 (PSMA3)  binding (T1, PSMG1/PSMG2 heterodimer (Homo sapiens); cryo-EM): binds
CRYAA F71L (Homo sapiens) (sequence not shown)  binding (CRYAB (Homo sapiens, UniProt P02511); co-IP): binds
pduQ (Salmonella enterica, UniProt Q9XDN0)  binding (PduC/PduD/PduE (Salmonella enterica Typhimurium LT2); cross-linking): binds
B8 (PEX6 1-1030)  binding (PEX1 1-1043 (Saccharomyces cerevisiae, UniProt P24004); pull-down; not purified): binds
YSDDDLDDLDDLLDDFDDEILSK (PEX19 N-terminal (Ogataea angusta))  binding (PEX3 38-457 (Hansenula polymorpha, UniProt Q01497); X-ray crystallography; peptide): binds
EEPSLLKKLLLAPA (PGC1α peptide residues 139-152; N-terminal 5-FAM)  binding (NR5A2 266-541 (Homo sapiens, UniProt O00482); fluorescence polarisation; peptide): binds
B9 (HCK 78-138)  binding (PIK3R1 80-724 (Homo sapiens, UniProt P27986); ITC): binds
B10 (CCDC22 280-446)  binding (DENND10 (Homo sapiens, UniProt Q8TCE6); SEC): binds
NGVTKAILEPRARVEKDYGK (gld-3 860-879 T865A (Caenorhabditis elegans, UniProt Q95ZK7); sequence looked up)  binding (fbf-2 164-575 (Caenorhabditis elegans, UniProt Q09312); fluorescence polarisation; peptide): binds
KKISNTAAALVSLLKEND (Nup60 267-284 D281K (Saccharomyces cerevisiae, UniProt P39705); sequence looked up)  binding (MLP1 382-620 (Saccharomyces cerevisiae, UniProt Q02455); pull-down; peptide): binds
B11 (rasC Q62L)  binding (racE T25N/S192D (Dictyostelium discoideum); pull-down): binds
POLR3E (Homo sapiens, UniProt Q9NVU0)  binding (SNAPC4 (Homo sapiens, UniProt Q5SXM2); cryo-EM): binds
B12 (nlpI)  binding (protein N130K/N225K/Q284R (Escherichia coli, UniProt P37648); cryo-EM): binds
LANFLVHSSNNFGAIL (hIAPP residues 12-27 (Homo sapiens); O-GlcNAc serine)  binding (IAPP mature (Homo sapiens, UniProt P10997); SPR; peptide): binds
B13 (TNPO1)  binding (MIDN fragment L395D (Homo sapiens); pull-down): binds
B14 (KAT7 474-611)  binding (KAT8 (Homo sapiens, UniProt Q9H7Z6); pull-down): binds

For quick reference, copied from above:
B13 (TNPO1)  binding (MIDN fragment L395D (Homo sapiens); pull-down): binds
B14 (KAT7 474-611)  binding (KAT8 (Homo sapiens, UniProt Q9H7Z6); pull-down): binds
